Results pooled from the literature.
± marks the error that the study gave.
rep main protease: Replicase polyprotein 1ab, main protease (rep, Severe acute respiratory syndrome coronavirus 2, UniProt P0DTD1)
rep nsp14 N7-methyltransferase: Replicase polyprotein 1ab, nsp14 N7-methyltransferase (rep, Severe acute respiratory syndrome coronavirus 2, UniProt P0DTD1)
rep nsp13 helicase: Replicase polyprotein 1ab, nsp13 helicase (rep, Severe acute respiratory syndrome coronavirus 2, UniProt P0DTD1)
rep papain-like protease: Replicase polyprotein 1ab, papain-like protease (rep, Severe acute respiratory syndrome coronavirus 2, UniProt P0DTD1)

The inhibition of `COc1cc2c(c3oc(-c4ccc(O)cc4O)cc13)C(C)(C)C(C)O2` (stereo not drawn) is reported as 5.9% (rep main protease; enzyme activity, inhibitor; concentration not given).
`CC(Cc1ccc(O)c(O)c1)C(C)Cc1ccc(O)c(O)c1` (stereo not drawn) gave a Hill slope of 1.1 ± 0.07 (rep nsp14 N7-methyltransferase; N7-methyltransferase activity, inhibitor, Py-FLINT).
`Cc1nc(C(=O)N2CC[C@@H]([C@@H]3CCCN3C(=O)c3cc(C)c4n[nH]nc4c3)C2)cc(=O)[nH]1` gave an inhibition of 12.9% (rep main protease; enzyme activity, inhibitor; 5 µM, run 1).
With `C=C1[C@@H](C)[C@H]2[C@H](Cc3ccccc3)NC(=O)[C@]23[C@H](OC(C)=O)/C=C/[C@](C)(O)C[C@@H](C)C/C=C/[C@H]3[C@@H]1O` the inhibition was 2.48% (rep main protease; reporter gene (Gaussia luciferase), inhibitor; 20 µM).
For `COCCC(=O)N1CCC(Oc2ccccc2)C1` (stereo not drawn), “log fold enrichment” read -0.0989 (rep nsp13 helicase; binding, affinity selection mass spectrometry; relative to: other proteins in batch).
`O=C(c1ccc2c(c1)COC2)N1CCCC[C@H](C2CN(C(=O)c3cncc4[nH]cnc34)C2)C1` has an inhibition of 18.4% (rep main protease; enzyme activity, inhibitor; 5 µM).
For `CC1(C)CC2(C)OC(=O)NC2(C)c2ccccc21` (stereo not drawn), the fold enrichment was 1.5 (rep nsp13 helicase; binding, affinity selection mass spectrometry; relative to: other proteins in batch).
`O=C(c1ccc(=O)[nH]c1)N1CCCC[C@H](C2CN(C(=O)c3cncc4[nH]ccc34)C2)C1` gave an inhibition of 17.5% (rep main protease; enzyme activity, inhibitor; 5 µM, run 1).
The delta Tm of `Cc1c(S(=O)(=O)N2CCc3[nH]ncc3C2)cc(C(=O)NCc2c(F)ccc3occc23)n1C` is reported as 20 °C (Replicase polyprotein 1ab, nsp14 (rep, Severe acute respiratory syndrome coronavirus 2, UniProt P0DTD1); thermal stability).
`Cc1cc(C)c(/C=C2/C(=O)Nc3ccc(Cl)cc32)[nH]1` has an inhibition of 0.935% (rep main protease; viral replication, Gluc reporter; SARS-CoV-2; 20 µM).
The ΔTm of `CC(=O)Nc1ccc(-c2cnc(/N=C\c3cc4ccccc4nc3Cl)s2)cc1` is reported as -7 °C (rep papain-like protease; thermal stability, DSF).
`CN1Cc2c(ccc3c2OCO3)-c2ccc3cc4c(cc3c21)OCO4` has an inhibition of 1.73% (rep main protease; reporter gene (Gaussia luciferase), inhibitor; 20 µM).
`Cc1cnc(F)c(C(=O)NC[C@@H]2c3ccccc3CCN2C(=O)c2cccc3[nH]ccc23)c1` gave an inhibition of 10.9% (rep main protease; enzyme activity, inhibitor; 5 µM, run 1).
For `COC(=O)c1c(C)[nH]c(C(=O)COn2nnc3ccc(S(=O)(=O)N(C)C)cc32)c1C`, the Hill slope was 1.97 (rep main protease; enzyme activity, inhibitor; SARS-CoV-2).
`C[C@@H]1O[C@@H](Oc2ccc(CN=C=S)cc2)[C@H](O)[C@H](O)[C@H]1O` has an inhibition of 0.0955% (rep main protease; reporter gene (Gaussia luciferase), inhibitor; 20 µM).
With `N#CC(C(N)=O)=C1Oc2c(cc(O)cc2-c2ccc(Cl)c(Cl)c2)S1` the Hill slope was 1.51 ± 0.22 (rep nsp14 N7-methyltransferase; N7-methyltransferase activity, inhibitor, Py-FLINT).
`N#C[C@@]1(n2ccc(N)nc2=O)O[C@H](COP(=O)(O)OP(=O)(O)OP(=O)(O)O)[C@@H](O)[C@H]1O` gave a kcat of 2.9 s⁻¹ (Replicase polyprotein 1ab, nsp12 with nsp7/nsp8 (rep, Severe acute respiratory syndrome coronavirus 2, UniProt P0DTD1); substrate; templating base G).
For `CCN(Cc1cn(C[C@H]2O[C@@H](n3cnc4c(N)ncnc43)[C@H](O)[C@@H]2O)nn1)S(=O)(=O)c1ccc(C(F)(F)F)cc1`, the remaining binding was over 50% (rep nsp14 N7-methyltransferase; N7-methyltransferase activity, inhibitor, radioactive filter binding; 50 µM, 0.5 h, 30 °C, added: GpppAC4 RNA, SAM).
`Cc1nn(-c2ccc(Cl)cc2)c2c1C(c1ccc(Cl)cc1Cl)C(C#N)=C(N)O2` (stereo not drawn) has an inhibition of 3.72% (rep main protease; 3CL protease activity; 0.0001 µg/mL, 90 min, enzyme 0.1 ng/mL).
With `COc1ccc(-c2csc(C3=C(O)CN(/N=C/c4c[nH]c5ccccc45)C3=N)n2)cc1` the Hill slope was 1.16 ± 0.09 (rep nsp14 N7-methyltransferase; N7-methyltransferase activity, inhibitor, Py-FLINT).
For `CC[C@H](NC(C)=O)C(=O)N[C@@H](CCCN)C(=O)N[C@@H](CC(C)C)C(=O)N[C@@H](CCC(N)=O)C(=O)Nc1ccc2c(C)cc(=O)oc2c1`, “apparent second-order rate constant” read 175 M⁻¹ s⁻¹ (rep main protease; substrate; 5% DMSO; pH 7.2, 37 °C).
With `CCCc1ccc(OCC(=O)N(Cc2nc(-c3cccnc3)no2)C(C)C)cc1` the inhibition was 0.0309% (rep main protease; reporter gene (mKate2), inhibitor; 20 µM).
`O=C(c1cccc(-c2n[nH]c(=O)[nH]2)c1)N1CCO[C@H](c2cn(-c3cccnc3)nn2)C1` gave an inhibition of 4.5% (rep main protease; enzyme activity, inhibitor; 5 µM, run 1).
With `O=C(Oc1cncc(Cl)c1)c1ccc2[nH]c3c(c2c1)CCCC3` the kinact/Ki was 5620 M⁻¹ s⁻¹ (rep main protease; inhibitor, biochemical).
With `CC(C)(C)c1ccc(N(C(=O)CCl)C(C(=O)NC2CCCCC2)c2cccnc2)cc1` (stereo not drawn) the kinact was 0.003 s⁻¹ (rep main protease; enzyme activity, inhibitor).
For `O=C(Nc1ccccc1C(=O)NC1CCCCNC1=O)c1cc2ccccc2s1` (stereo not drawn), the Hill slope was 1.45 ± 0.68 (rep nsp14 N7-methyltransferase; N7-methyltransferase activity, inhibitor, Py-FLINT).
`O=C(NC[C@H](NC(=O)c1cncc2c1CCNC2=O)c1ccc2ccccc2c1)c1ccon1` has an inhibition of 12.1% (rep main protease; enzyme activity, inhibitor; 5 µM, run 1).
`CC(C)C[C@H](NC(=O)OCc1ccccc1)C(=O)N[C@@H](CC(C)C)C(=O)N[C@@H](CC1CCNC1=O)C(=O)C(=O)NC1CC1` (stereo partly drawn) gave a ΔTm of 18.1 °C (rep main protease; thermal stability, DSF).
With `O=C(O)/C(S)=C/c1c[nH]c2ccc(F)cc12` the inhibition was -0.438% (rep main protease; viral replication, mKate2 reporter; SARS-CoV-2; 20 µM).
`CC(=O)Nc1ccc2occ(Cc3c(O)ccc4cc(-c5ccccc5)c(=O)oc34)c(=O)c2c1` has a Hill slope of 1.07 ± 0.08 (rep nsp14 N7-methyltransferase; N7-methyltransferase activity, inhibitor, Py-FLINT).
With `CC#CCn1c(N2CCC[C@@H](N)C2)nc2c1c(=O)n(Cc1nc(C)c3ccccc3n1)c(=O)n2C` the inhibition was -0.825% (rep main protease; reporter gene (Gaussia luciferase), inhibitor; 20 µM).
For `O=c1c(O)c(-c2ccc(O)cc2)oc2c(O)c(O)cc(O)c12`, the modification was 5.1% (rep main protease; covalent modification; 20 µM, protein 10 µM, molar ratio 1:2).
`CCC(C(=O)Nc1cc(NC2CNC2)ccc1C)n1cc(Br)cc2nc(SCc3ccc(F)cc3)nc1-2` (stereo not drawn) has a koff of 0.075 s⁻¹ (rep papain-like protease; binding).
`Cc1cc(=O)[nH]cc1C(=O)N1C[C@@]23CCCC[C@@]2(CN(C(=O)C[C@H]2NC(=O)NC2=O)C3)C1` has an inhibition of 12.9% (rep main protease; enzyme activity, inhibitor; 5 µM, run 1).
With `N.N.N.N.N.N.N.N.N.N.N.N.N.N.[Cl-].[Cl-].[Cl-].[Cl-].[Cl-].[Cl-].[O-2].[O-2].[Ru+3].[Ru+3].[Ru+4]` the Hill slope was 2.2 ± 0.39 (rep nsp14 N7-methyltransferase; N7-methyltransferase activity, inhibitor, Py-FLINT).
With `CCC(C(=O)Nc1cc(NC2CCNC2)ccc1C)n1cccc2nc(SCc3ccc(F)cc3)nc1-2` (stereo not drawn) the koff was 0.048 ± 0.003 s⁻¹ (rep papain-like protease; binding).
`CC1CC(c2ccc(C(=O)O)cc2)=NN1c1ccccc1.N` (stereo not drawn): “lipophilic ligand efficiency” 0.9 (Replicase polyprotein 1ab, nsp14 methyltransferase (rep, Severe acute respiratory syndrome coronavirus 2, UniProt P0DTD1)).
With `O=[N+]([O-])c1cc(O)c(O)c([N+](=O)[O-])c1` the Hill slope was 0.77 ± 0.07 (rep nsp14 N7-methyltransferase; N7-methyltransferase activity, inhibitor, Py-FLINT).
`C=CS(=O)(=O)N(c1ccc(C(C)(C)C)cc1)C(C(=O)NC1CCCCC1)c1cccnc1` (stereo not drawn) gave a kon of 1700 ± 0.3 M⁻¹ s⁻¹ (rep main protease; inhibitor, ITC, irreversible model; 16.7 µM).
`Cc1cc2c(C(C)C)c(O)c(O)c(C=O)c2c(O)c1-c1c(C)cc2c(C(C)C)c(O)c(O)c(C=O)c2c1O` has a Hill slope of 1.1 ± 0.08 (rep nsp14 N7-methyltransferase; N7-methyltransferase activity, inhibitor, Py-FLINT).
With `O=C(NC[C@@H]1CC2(CCOCC2)CN1C(=O)c1ccc2c(c1)C(=O)NC2)c1cccnn1` the inhibition was 10.4% (rep main protease; enzyme activity, inhibitor; 5 µM, run 1).
`N=C(N)c1ccccc1` gave an inhibition of -0.241% (rep main protease; reporter gene (mKate2), inhibitor; 20 µM).

Some of these lines once more:
`O=C(NC[C@H](NC(=O)c1cncc2c1CCNC2=O)c1ccc2ccccc2c1)c1ccon1` has an inhibition of 12.1% (rep main protease; enzyme activity, inhibitor; 5 µM, run 1).
With `O=[N+]([O-])c1cc(O)c(O)c([N+](=O)[O-])c1` the Hill slope was 0.77 ± 0.07 (rep nsp14 N7-methyltransferase; N7-methyltransferase activity, inhibitor, Py-FLINT).
`C=CS(=O)(=O)N(c1ccc(C(C)(C)C)cc1)C(C(=O)NC1CCCCC1)c1cccnc1` (stereo not drawn) gave a kon of 1700 ± 0.3 M⁻¹ s⁻¹ (rep main protease; inhibitor, ITC, irreversible model; 16.7 µM).
With `O=C(Oc1cncc(Cl)c1)c1ccc2[nH]c3c(c2c1)CCCC3` the kinact/Ki was 5620 M⁻¹ s⁻¹ (rep main protease; inhibitor, biochemical).
`CC(=O)Nc1ccc2occ(Cc3c(O)ccc4cc(-c5ccccc5)c(=O)oc34)c(=O)c2c1` has a Hill slope of 1.07 ± 0.08 (rep nsp14 N7-methyltransferase; N7-methyltransferase activity, inhibitor, Py-FLINT).
